Results pooled from the literature.
Protocols differ between the studies behind these lines. ± marks the error that the study gave.
HCRTR1: Orexin/Hypocretin receptor type 1 (HCRTR1, Homo sapiens, UniProt O43613)
UniProt O43613, sequence (whole entry, looked up): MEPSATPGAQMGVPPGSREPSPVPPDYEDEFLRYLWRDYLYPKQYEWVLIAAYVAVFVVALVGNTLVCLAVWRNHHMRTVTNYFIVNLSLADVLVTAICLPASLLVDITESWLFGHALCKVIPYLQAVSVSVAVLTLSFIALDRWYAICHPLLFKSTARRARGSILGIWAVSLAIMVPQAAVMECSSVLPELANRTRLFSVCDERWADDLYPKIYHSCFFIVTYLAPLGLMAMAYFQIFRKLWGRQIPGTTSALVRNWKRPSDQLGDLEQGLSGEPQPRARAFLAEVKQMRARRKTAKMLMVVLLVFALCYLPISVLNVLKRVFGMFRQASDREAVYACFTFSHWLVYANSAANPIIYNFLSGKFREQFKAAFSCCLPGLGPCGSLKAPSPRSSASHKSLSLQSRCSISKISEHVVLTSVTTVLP
GRB2: Growth factor receptor-bound protein 2 (GRB2, Homo sapiens, UniProt P62993)
UniProt Q07954, sequence (whole entry, unmodified, looked up): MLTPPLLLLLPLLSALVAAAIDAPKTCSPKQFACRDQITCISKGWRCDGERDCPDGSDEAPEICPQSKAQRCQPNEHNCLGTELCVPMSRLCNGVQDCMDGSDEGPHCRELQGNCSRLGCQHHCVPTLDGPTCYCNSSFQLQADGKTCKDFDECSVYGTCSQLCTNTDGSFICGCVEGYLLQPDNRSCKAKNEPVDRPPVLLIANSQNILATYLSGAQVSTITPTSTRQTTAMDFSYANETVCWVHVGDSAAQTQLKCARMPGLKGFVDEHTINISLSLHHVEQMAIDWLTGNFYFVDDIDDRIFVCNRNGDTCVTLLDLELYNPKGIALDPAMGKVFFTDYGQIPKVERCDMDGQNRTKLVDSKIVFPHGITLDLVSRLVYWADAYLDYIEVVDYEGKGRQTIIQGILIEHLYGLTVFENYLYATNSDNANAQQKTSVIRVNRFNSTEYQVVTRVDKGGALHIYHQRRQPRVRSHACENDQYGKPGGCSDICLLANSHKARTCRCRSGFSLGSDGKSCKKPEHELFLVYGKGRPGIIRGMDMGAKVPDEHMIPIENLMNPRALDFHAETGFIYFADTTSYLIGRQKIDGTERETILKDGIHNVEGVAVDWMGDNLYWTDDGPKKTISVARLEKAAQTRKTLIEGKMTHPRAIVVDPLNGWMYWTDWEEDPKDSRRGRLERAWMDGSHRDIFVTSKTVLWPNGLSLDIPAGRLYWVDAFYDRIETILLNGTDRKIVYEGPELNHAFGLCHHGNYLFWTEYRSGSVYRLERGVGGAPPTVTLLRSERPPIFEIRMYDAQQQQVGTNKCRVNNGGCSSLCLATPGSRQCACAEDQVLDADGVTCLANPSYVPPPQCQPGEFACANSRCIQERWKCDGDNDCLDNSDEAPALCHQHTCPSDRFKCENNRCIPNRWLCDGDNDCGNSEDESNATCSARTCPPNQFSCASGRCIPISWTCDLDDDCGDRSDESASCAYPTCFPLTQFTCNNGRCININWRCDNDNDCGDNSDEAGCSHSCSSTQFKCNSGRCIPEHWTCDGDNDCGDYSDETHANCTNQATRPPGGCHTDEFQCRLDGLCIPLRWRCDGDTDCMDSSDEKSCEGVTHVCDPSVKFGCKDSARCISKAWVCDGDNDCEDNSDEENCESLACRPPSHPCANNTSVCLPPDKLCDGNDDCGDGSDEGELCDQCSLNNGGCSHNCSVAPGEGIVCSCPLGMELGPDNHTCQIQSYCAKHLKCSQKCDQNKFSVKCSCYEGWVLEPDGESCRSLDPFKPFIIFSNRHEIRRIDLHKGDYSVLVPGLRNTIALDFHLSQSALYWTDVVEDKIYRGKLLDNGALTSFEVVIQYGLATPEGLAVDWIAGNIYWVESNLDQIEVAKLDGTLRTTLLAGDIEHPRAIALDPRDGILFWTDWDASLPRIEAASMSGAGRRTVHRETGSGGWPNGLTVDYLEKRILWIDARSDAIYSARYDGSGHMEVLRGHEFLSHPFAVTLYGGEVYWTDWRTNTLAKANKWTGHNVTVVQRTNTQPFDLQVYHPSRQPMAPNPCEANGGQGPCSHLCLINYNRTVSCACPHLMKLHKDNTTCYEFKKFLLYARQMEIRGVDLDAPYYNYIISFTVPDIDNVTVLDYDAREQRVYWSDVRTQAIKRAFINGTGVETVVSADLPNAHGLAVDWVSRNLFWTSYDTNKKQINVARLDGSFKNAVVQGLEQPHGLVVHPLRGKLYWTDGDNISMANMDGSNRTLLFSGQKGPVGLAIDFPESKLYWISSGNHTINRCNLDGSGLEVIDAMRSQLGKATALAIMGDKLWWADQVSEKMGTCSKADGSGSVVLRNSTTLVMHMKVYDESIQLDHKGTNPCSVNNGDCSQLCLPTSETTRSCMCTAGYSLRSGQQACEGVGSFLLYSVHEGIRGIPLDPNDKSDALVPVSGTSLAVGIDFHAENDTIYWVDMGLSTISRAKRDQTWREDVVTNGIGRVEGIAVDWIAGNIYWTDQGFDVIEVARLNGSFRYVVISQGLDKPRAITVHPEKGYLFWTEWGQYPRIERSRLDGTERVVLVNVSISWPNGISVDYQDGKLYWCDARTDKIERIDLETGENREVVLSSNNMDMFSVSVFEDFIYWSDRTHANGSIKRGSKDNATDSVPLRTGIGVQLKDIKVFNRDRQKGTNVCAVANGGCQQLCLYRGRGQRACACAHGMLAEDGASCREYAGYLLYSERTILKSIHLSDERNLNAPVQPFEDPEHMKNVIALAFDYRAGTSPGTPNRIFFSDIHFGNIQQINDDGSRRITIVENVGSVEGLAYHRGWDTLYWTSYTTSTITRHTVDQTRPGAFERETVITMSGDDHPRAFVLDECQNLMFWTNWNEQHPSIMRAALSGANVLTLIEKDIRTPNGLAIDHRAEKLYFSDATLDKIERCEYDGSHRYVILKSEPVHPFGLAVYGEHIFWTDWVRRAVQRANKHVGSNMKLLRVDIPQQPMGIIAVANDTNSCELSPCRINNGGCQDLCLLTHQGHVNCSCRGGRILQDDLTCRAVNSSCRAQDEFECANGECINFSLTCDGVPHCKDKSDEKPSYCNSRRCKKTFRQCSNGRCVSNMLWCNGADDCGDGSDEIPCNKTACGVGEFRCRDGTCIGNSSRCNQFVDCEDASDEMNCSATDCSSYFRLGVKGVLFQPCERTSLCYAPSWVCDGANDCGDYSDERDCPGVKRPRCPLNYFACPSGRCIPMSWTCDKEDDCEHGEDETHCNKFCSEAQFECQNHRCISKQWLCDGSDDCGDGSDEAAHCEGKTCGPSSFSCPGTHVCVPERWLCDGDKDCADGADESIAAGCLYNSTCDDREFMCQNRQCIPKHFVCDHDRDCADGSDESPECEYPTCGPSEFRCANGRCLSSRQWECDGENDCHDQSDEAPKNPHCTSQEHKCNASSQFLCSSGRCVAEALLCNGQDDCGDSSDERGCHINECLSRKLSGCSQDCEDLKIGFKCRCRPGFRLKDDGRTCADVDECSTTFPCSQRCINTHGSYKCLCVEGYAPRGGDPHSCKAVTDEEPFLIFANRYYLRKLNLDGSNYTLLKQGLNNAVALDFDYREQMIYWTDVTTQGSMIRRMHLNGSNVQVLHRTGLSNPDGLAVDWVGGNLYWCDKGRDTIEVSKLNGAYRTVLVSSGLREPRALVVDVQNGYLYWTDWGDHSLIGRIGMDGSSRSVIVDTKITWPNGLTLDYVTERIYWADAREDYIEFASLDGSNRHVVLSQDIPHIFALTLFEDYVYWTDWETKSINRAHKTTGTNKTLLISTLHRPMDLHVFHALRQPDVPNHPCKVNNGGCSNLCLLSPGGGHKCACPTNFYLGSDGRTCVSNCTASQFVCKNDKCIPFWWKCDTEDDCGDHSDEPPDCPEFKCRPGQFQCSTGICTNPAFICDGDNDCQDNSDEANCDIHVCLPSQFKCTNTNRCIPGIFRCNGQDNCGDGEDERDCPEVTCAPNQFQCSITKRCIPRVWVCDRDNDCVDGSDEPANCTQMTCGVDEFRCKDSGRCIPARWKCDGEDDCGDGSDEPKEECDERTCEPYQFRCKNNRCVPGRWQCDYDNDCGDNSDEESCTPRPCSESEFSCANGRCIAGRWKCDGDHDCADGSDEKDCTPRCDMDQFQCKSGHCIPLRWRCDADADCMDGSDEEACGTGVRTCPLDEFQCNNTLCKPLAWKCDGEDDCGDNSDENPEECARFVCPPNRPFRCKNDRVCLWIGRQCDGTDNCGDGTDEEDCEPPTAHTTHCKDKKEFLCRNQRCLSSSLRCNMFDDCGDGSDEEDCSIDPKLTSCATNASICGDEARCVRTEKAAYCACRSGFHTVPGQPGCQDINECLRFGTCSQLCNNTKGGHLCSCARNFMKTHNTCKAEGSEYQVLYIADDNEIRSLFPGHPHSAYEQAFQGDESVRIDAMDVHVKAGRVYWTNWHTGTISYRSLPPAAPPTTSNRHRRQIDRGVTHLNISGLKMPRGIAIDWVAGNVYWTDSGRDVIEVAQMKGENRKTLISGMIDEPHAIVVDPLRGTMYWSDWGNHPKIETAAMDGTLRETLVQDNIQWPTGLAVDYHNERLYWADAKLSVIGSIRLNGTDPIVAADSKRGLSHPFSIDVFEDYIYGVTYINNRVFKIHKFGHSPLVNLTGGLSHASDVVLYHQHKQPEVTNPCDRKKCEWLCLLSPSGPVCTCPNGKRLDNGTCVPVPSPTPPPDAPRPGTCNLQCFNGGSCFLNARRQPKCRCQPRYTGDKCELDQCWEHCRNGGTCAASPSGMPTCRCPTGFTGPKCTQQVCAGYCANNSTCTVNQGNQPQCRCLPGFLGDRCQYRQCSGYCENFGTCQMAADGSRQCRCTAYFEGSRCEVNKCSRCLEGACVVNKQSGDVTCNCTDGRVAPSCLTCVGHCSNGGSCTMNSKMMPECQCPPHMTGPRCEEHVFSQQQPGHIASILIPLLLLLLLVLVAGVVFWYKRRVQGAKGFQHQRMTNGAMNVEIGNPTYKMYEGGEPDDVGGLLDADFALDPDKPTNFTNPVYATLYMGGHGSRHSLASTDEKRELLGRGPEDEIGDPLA
UniProt P62937, sequence (whole entry, looked up): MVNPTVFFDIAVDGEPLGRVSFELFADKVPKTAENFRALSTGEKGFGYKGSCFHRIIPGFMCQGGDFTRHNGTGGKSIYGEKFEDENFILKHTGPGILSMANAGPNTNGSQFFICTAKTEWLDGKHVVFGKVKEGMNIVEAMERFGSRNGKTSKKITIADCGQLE

COCc1c(C(C)C)nc(C(C)C)c(/C=C/[C@@H](O)C[C@@H](O)CC(=O)O)c1-c1ccc(F)cc1 — Kd (Cytochrome P450 2C8 (CYP2C8, Homo sapiens, UniProt P10632, K399R/R139K); ligand binding, equilibrium spectral binding; purified protein; pH 7.4, 25 °C, high-affinity site, 1% CHAPS): 0.16 ± 0.02 µM
COc1ccc(CC2c3cc(OCC4CCCCC4)c(OC)cc3CCN2CC(=O)NCc2ccccc2)cc1OC (stereo not shown) — Kd (HCRTR1): > 10 µM
O=C1c2c(O)ccc(O)c2C(=O)c2c(NCCNCCO)ccc(NCCNCCO)c21 — Kd (HIV-1 SL3 RNA stem-loop; binding, ESI-FTMS titration; pH 7.5): 3.9 ± 0.5 µM
Nc1ccn([C@H]2C[C@H](O)[C@@H](COP(=O)(O)OP(=O)(O)OP(=O)(O)O)O2)c(=O)n1 — Kd (DNA polymerase 3 (dpo3, Saccharolobus solfataricus, UniProt P95979, D236A); nucleotide incorporation, pre-steady-state single turnover; correct incorporation, template G, together with: primer-template DNA): 61 ± 25 µM
O=C(O)c1cc(=O)[nH]c(=O)n1[C@@H]1OC[C@@H](O)[C@H]1O — Kd (Orotidine 5'-phosphate decarboxylase (Saccharomyces cerevisiae S288c, UniProt P03962, S154A); HPLC initial velocity; 25 °C, lower limit, no saturation): > 100000 µM
CN(C)[C@@H]1C(O)=C(C(N)=O)C(=O)[C@@]2(O)C(O)=C3C(=O)c4c(O)ccc(Cl)c4[C@@](C)(O)[C@H]3C[C@@H]12 — Kd (HIV-1 SL4 RNA stem-loop; binding, ESI-FTMS titration; pH 7.5): 391 ± 81.1 µM
Cn1nc(C(C)(C)C)cc1NC(=O)Nc1ccc(Oc2ccncc2)cc1 — Kd (Mitogen-activated protein kinase 13, non-phosphorylated (MAPK13, Homo sapiens, UniProt O15264); inhibitor, differential scanning fluorimetry; unphosphorylated kinase): 2.6 ± 0.5 µM
CCCOc1cc2c(cc1OC)CCN(CC(=O)NCc1ccccn1)C2Cc1ccc(OC)c(OC)c1 (stereo not shown) — Kd (HCRTR1): 0.0206 ± 0.0055 µM
CC[C@H](C)[C@H](NC(=O)[C@@H](N)CC(=O)O)C(=O)N1CCC[C@H]1C(=O)N1CCC[C@H]1C(=O)N1CCC[C@H]1C(=O)N[C@@H](CCCNC(=N)N)C(=O)N1CCC[C@H]1C(=O)N1CCC[C@H]1C(=O)N[C@@H](CCCCN)C(=O)N1CCC[C@H]1C(=O)N[C@@H](Cc1c[nH]cn1)C(=O)N[C@@H](C)C(=O)O — Kd (GRB2; binding, ITC; pH 8): 295 µM
COc1ccc(CC2c3cc(OC)c(OC)cc3CCN2CC(=O)NCc2ccc(F)cc2)cc1OC (stereo not shown) — Kd (HCRTR1): 0.279 ± 0.081 µM
Nc1ncnc2c1ncn2[C@@H]1O[C@H](COP(=O)(O)OP(=O)(O)OP(=O)(O)O)[C@@H](O)[C@H]1O — Kd (Hepatocyte growth factor receptor (MET, Homo sapiens, UniProt P08581)): 74 µM
CSCC[C@H](NC(=O)[C@H](CC(N)=O)NC(=O)[C@H](CC(N)=O)NC(=O)[C@H](CC(N)=O)NC(=O)[C@H](C)N)C(=O)N[C@@H](Cc1ccc(O)cc1)C(=O)N[C@@H](CCCNC(=N)N)C(=O)N[C@@H](CCCNC(=N)N)C(=O)O — Kd (dnaK (Escherichia coli, UniProt P0A6Y8); peptide binding, surface plasmon resonance; together with: ATP): 1.77 µM
CC[C@H](C)[C@H](NC(=O)[C@@H](N)CC(=O)O)C(=O)N1CCC[C@H]1C(=O)N1CCC[C@H]1C(=O)N1CCC[C@H]1C(=O)N[C@@H](CCCNC(=N)N)C(=O)N1CCC[C@H]1C(=O)N[C@@H](C)C(=O)N[C@@H](CCCCN)C(=O)N1CCC[C@H]1C(=O)N[C@@H](Cc1c[nH]cn1)C(=O)N1CCC[C@H]1C(=O)O — Kd (GRB2; binding, ITC; pH 8): 968 µM
COC(=O)[C@@H](N)CCCCN — Kd (LRP1, CR3 domain (Homo sapiens, UniProt Q07954); binding, tryptophan fluorescence titration; isolated CR3 domain; pH 7.4, 298 K, ionic strength 0.17): 370 ± 40 µM
COc1ccc(CC2c3cc(OC)c(OC)cc3CCN2CC(=O)NC2CCCc3ccccc32)cc1OC (stereo not shown) — Kd (HCRTR1): 0.0411 ± 0.006 µM
COC(=O)[C@@H](N)Cc1c[nH]cn1 — Kd (LRP1, CR5 domain (Homo sapiens, UniProt Q07954); tryptophan fluorescence titration; pH 5.5, CR5 domain, low ionic strength): 330 ± 10 µM
Nc1nc2c(ncn2[C@@H]2O[C@H](COP(=O)(O)OP(=O)(O)OP(=O)(O)O)[C@@H](O)[C@H]2O)c(=O)[nH]1 — Kd (parM (Escherichia coli, UniProt P11904); cell-free assay): 11.6 µM
COc1ccc(CC2c3cc(OC)c(OC)cc3CCN2CC(=O)NCc2ccccc2)cc1NC(C)=O (stereo not shown) — Kb (HCRTR1; calcium signal, antagonist, fluorescence): > 10 µM
C#Cc1cccc(CN2CCC3=C(C2)C(=O)N(Cc2ccc(Cl)cc2)C2=NCCN23)c1 — Kd (ATP-dependent Clp protease proteolytic subunit, mitochondrial (CLPP, Homo sapiens, UniProt Q16740); casein-FITC degradation, activator): 0.0237 ± 0.01 µM
CC(=O)N[C@@H](CCCCN)C(=O)N[C@@H](CCCNC(=N)N)C(=O)N[C@@H](CC(C)C)C(=O)N[C@@H](CCCNC(=N)N)C(=O)N[C@@H](CCCNC(=N)N)C(=O)N[C@@H](CO)C(=O)N[C@@H](C)C(=O)N[C@@H](Cc1c[nH]cn1)C(=O)N[C@@H](C)C(=O)N[C@@H](CCCNC(=N)N)C(=O)N[C@@H](CCCCN)C(=O)N[C@@H](CCC(=O)O)C(=O)N[C@H](C(=O)N[C@@H](CCC(=O)O)C(=O)N[C@@H](Cc1ccccc1)C(=O)N[C@@H](CC(C)C)C(=O)N[C@@H](CCCNC(=N)N)C(=O)N[C@@H](CC(C)C)C(=O)N[C@@H](CCCCN)C(=O)N[C@@H](CCCNC(=N)N)C(=O)N[C@H](C(=O)N[C@@H](CCCNC(=N)N)C(=O)N[C@@H](CC(C)C)C(=O)NCC(=O)N[C@@H](CC(C)C)C(=O)N[C@@H](CCC(=O)O)C(=O)N[C@@H](Cc1ccc(O)cc1)C(N)=O)[C@@H](C)O)[C@@H](C)O — Kd (Protein S100-B (Homo sapiens, UniProt P04271); binding, isothermal titration calorimetry; low salt, together with: Ca2+ 5 mM; higher-affinity site): 0.4 µM
NC(=O)C1=CN([C@@H]2O[C@H](COP(=O)(O)OP(=O)(O)OC[C@H]3O[C@@H](n4cnc5c(N)ncnc54)[C@H](OP(=O)(O)O)[C@@H]3O)[C@@H](O)[C@H]2O)C=CC1 — Kd (Enoyl-ACP reductase (Thermus thermophilus, UniProt P83818); substrate, stopped-flow reductive half-reaction): 17 µM
COc1ccc(CC2c3cc(OC)c(OC)cc3CCN2CC(=O)Nc2ccccc2-c2ccccc2)cc1OC (stereo not shown) — Kd (HCRTR1): 0.944 ± 0.16 µM
CC1=C(/C=C/C(C)=C/C=C/C(C)=C/C=C/C=C(C)/C=C/C=C(C)/C=C/C2=C(C)CCCC2(C)C)C(C)(C)CCC1 — Kd (Glutathione S-transferase P (GSTP1, Homo sapiens, UniProt P09211); surface plasmon resonance; 25 °C, 1:1 binding model): 1.09 ± 0.01 µM
COc1cc2c(cc1OC)C(Cc1ccc3ncccc3c1)N(CC(=O)NCc1ccccc1)CC2 (stereo not shown) — Kb (HCRTR1; calcium signal, antagonist, fluorescence): 0.432 µM
COC(=O)[C@@H](N)CCCN=C(N)N — Kd (LRP1, CR8 domain D1085A (Homo sapiens, UniProt Q07954, D1085A); binding, tryptophan fluorescence titration; pH 7.4, 298 K, ionic strength 0.02): 5000 ± 500 µM
COC(=O)c1cc(Cc2ccc(NCc3ccccc3)c(C(=O)OC)c2)ccc1NCc1ccccc1 — Kd (Peptidyl-prolyl cis-trans isomerase A (PPIA, Homo sapiens, UniProt P62937); binding, SPR; pH 7.4): 414 µM
N[C@@H](CCCNC1=NC(=O)CN1)C(=O)O — Kd (Advanced glycosylation end product-specific receptor (AGER, Homo sapiens, UniProt Q15109); binding, fluorescence; pH 6.5): 0.043 µM
COc1ccc(CC2c3cc(OC)c(OC)cc3CCN2CC(=O)N2CCCC(c3ccccc3)C2)cc1OC (stereo not shown) — Kd (HCRTR1): 3.53 ± 0.65 µM
CCCCCCCNCC(P(=O)(O)O)P(=O)(O)O — Kd (Farnesyl diphosphate synthase (Trypanosoma cruzi, UniProt Q8WS26); binding, isothermal titration calorimetry; 28 °C, second site, two-site model): 0.0383 µM
NC(=O)C[C@H](NC(=O)C1(NC(=O)[C@H](Cc2ccc(C(C(=O)O)C(=O)O)cc2)NC(=O)C(=O)O)CCCCC1)C(=O)NCCCc1cccc2c(O)cccc12 — Kd (Growth factor receptor-bound protein 2, SH2 (GRB2, Homo sapiens, UniProt P62993); binding, SPR): 0.132 µM
COc1ccc(CC2c3cc(OCCC(C)C)c(OC)cc3CCN2CC(=O)NCc2ccccc2)cc1OC (stereo not shown) — Kd (HCRTR1): 0.326 ± 0.046 µM
